Measurements pooled from the literature.
Each numbered part is a random draw from the data of one study; scales do not carry over between parts. Positions count from the first letter of the parent shown.

Block 1 — method: RNA Bind-n-Seq; molecule type: RNA; sample: in vitro; tested at: 200 nM; setting: whole 134-nt RNA, ends assumed; added: 150 mM LiCl; reference: input library; reading: higher = stronger binding; each molecule: 7-deaza-guanosine replaces G
Target: Fragile X messenger ribonucleoprotein 1, C-terminal low-complexity region (Fmr1, Mus musculus, UniProt P35922)
Shared flanks, not repeated: GGGAGUUCUACAGUCCGACGAUC … UGGAAUUCUCGGGUGUCAAGG
Oligonucleotide | log2 enrichment
CCUGUGCUACACAUCGUAUGUACCGAAUCAAACCCCCAAACCCCCCCAAAUUUUUUUAAAAAAGUAUUAUGUUACGCCGUUCGGAUCUGC | 1.36
UCCUGUGCUACACAUCGUAUGUACCGAAUCGGGGUUUUUGGGGUUUGGGGUUUUUGGGGAAAGUAUUAUGUUACGCCGUUCGGAUCUGCA | -1.28
CAAGUCCUGUGCUACACAUCGUAUGUACCGAAUCGGGAAGGGGAAGGGGAAGGGGAAAGUAUUAUGUUACGCCGUUCGGAUCUGCACUUC | -0.312
CCUGUGCUACACAUCGUAUGUACCGAAUCGGGGUUUGGGGAAAAAAAGGGGUUUUUGGGGAAAGUAUUAUGUUACGCCGUUCGGAUCUGC | -0.685
UCAAGUCCUGUGCUACACAUCGUAUGUACCGAAUCGGGGUUGGGUUGGGUUGGGAAAGUAUUAUGUUACGCCGUUCGGAUCUGCACUUCC | -0.582
UGGCCCUGGUGGCAUGCGGGGAGGAAGAGGUGGCCUCAUGGAUCGUGGUGGUCCCGGUGGAAUGUUCAGAGGUGGCCGUGGUGGAGACAG | -0.675
UUGUUUUUUUUUUGUUCUUUUUUUCCAUGUCACUAAAGGCCCUCGGGACCAAGGAUCACGUCAUGACUCCGGUGAGUUCACACGUGGUGG | 1.57
UCCUGUGCUACACAUCGUAUGUACCGAAUCGGCCCCCCGGGCCCCCCGGCCCCCCGGGGAAAGUAUUAUGUUACGCCGUUCGGAUCUGCA | -0.197

Block 2 — method: RNA Bind-n-Seq; molecule type: RNA; sample: in vitro; tested at: not given; reference: input RNA pool; reading: higher = stronger binding
Target: RING finger protein unkempt homolog, zinc fingers 1-6, GST-SBP tag (UNK, Homo sapiens, UniProt Q9C0B0, residues 30-357)
Setting: RNA with constant flanks, human-mouse chimeric sites, ends assumed
Shared flanks, not repeated: GGGAGUUCUACAGUCCGACGAUC … CAACAGAGGAUUGAGCAUCA
Target sequence (chain): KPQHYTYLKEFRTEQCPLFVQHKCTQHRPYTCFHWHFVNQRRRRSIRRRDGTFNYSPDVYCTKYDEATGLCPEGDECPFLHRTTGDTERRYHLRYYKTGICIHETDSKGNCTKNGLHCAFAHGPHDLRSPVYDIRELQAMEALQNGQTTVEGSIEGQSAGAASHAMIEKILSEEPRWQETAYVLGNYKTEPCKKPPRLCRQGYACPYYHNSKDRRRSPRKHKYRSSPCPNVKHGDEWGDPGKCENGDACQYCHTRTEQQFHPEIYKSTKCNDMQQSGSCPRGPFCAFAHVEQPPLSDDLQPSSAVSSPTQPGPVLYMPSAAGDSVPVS
Oligonucleotide | bound/input enrichment [ratio]
GGCCUGGGACCGUCCUGGGCUAGUACAAUAGCGGCAGGUGGAGGCUCGAGAGGAAAGUUUGUUAGUGGAGGCAGUGGUAGAGGCCGUCAUGUACGGUCUUUACACGAAUAGAUGUGUUCU | 0.582
CAACAGAGUCUAGGAUGGGUUCAUUACAUGAUUCAUGAGCCAGAACCACAUAUUCUUCUCUUUAGACGACCUCUUCCAAAAGAACAACAAAAAUGAAGUUUAUCUGGGAUCAUCUAAUCU | 0.166
UACUCAACUUUCUUGCCACAUUUUGAAUUCCAAGACAUUAUUCCUCCAGAUGACUUCCUAACGAGUGAUGAAGAGCAAGAUUCCGUUUUAUUUGGAACUAUGAGAGGUCAUGUGGUUGGA | 0.282
AUUCCGAUUAUGGACACCGGUGAAAACCCAGAGGUGCCCUUCCCCCGGGACAUGAUUGACUUAGAGGCCAAUUUUGAGAAGAUUGAAAAUGAACUGAAGGAAAUCAACACAAACCAGGAA | 0.0762
GAAUCCUACUCAGGCGGAUUUUGCAACACCAAGCUCACAGCAGCAGCAUCUUAGUCACAGUUAGGUAGUUUUGGGGCUCUGUGGCCAGGGUUUUAUUCAUGUGCAGGUUUGGAAAAUGUA | 2.37
ACAGUUAUAUUGUUGAGUUUCAUUUUCUUGUAUGUUUAUGGUGUCUGCUUGCCUGUGACUUCUGGUAAAAUAAAAUAAGCCUUUGAAAAUAUUUUAGCAUGGUAUUUAACAUUUUCUAAA | 0.991
CUCAGAGAUGUGGCAUAUCAGUAUGUGAAAAAGGGGGCUCGAAUUUAUGUGGAAGGGAAAAUAGACUAUGGCGAGUACAUGGAUAAAAACAAUGUGAGGCGGCAAGCAACAACAAUCAUA | 0.51
CUGAAAAACACAGAUAUCAAAGUUGUUGAUUUUGGAAGUGCAACGUAUGAUGAUGAACAUCAUAGUACUUUGGUGUCUACCCGGCACUACAGAGCUCCCGAGGUCAUUUUGGCUUUAGGU | 0.457

Block 3 — target: CCNE2, cyclin fold, Cln2 fusion (human); method: yeast growth competition, sequencing; sample: yeast; setting: strong parent motif; reference: not given; reading: higher = stronger binding
Parent: BRCA2 docking peptide (human); PSIKRNLLNEFDR
Substitution | normalised enrichment score
R13I | 1.87
I3L | 0.172
L8E | 0.484
R5L | -0.341
L7N | -1.2
I3C | 4.66
R13A | 1.72
P1M | 1.49
D12K | 1.83
R5K | 0.179
K4C | 2.89
E10K | 0.224
L8Y | 0.852
L8S | 1.18
N6W | 0.971
N9Y | 3.22
P1E | 2.48
R5A | -0.0306
E10G | 0.598
F11K | -0.326
F11P | 0.321
E10V | 0.705
F11S | -1.42
N6E | 0.384
N6L | 0.0957

Block 4 — target: MAFK, bZIP domain (human); method: DHFR protein complementation; sample: yeast; reference: wild-type JUN-FOS pair; reading: higher = stronger binding
Setting: single substitutions, most at no-binding floor
Parent: JUN, bZIP domain (human); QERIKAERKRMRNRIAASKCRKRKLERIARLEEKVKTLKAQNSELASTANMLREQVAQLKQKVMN; partner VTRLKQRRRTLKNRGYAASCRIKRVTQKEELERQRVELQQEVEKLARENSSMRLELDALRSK
Substitution | binding fitness [natural log]
S43C | -1.5
E44W | -1.52
I28C | -1.45
I28E | -1.42
R53Q | -1.46
K39A | -1.53
K39I | -1.37
E54Y | -1.3
I28D | -1.61
S43W | -1.51
A49I | -1.44
E33I | -1.43
K36G | -1.48
A46T | -1.45
L45M | -1.41
K34F | -1.49
K36T | -1.45
A46Y | -1.57
L45G | -1.45
V56L | -1.43
L52K | -1.54
R53H | -1.52
A46F | -1.55
V56T | -1.5
E32V | -1.48

Excerpt of the above (block 3):
Substitution | normalised enrichment score
L8S | 1.18
K4C | 2.89
E10V | 0.705
F11P | 0.321
R5L | -0.341
R13I | 1.87
E10G | 0.598
P1E | 2.48
